Results from different studies.
Organism: Trypanosoma brucei

Nc1nc(Nc2ccccc2)sc1C(=O)c1c(F)cccc1F — EC50 (cell proliferation, resazurin; bloodstream form; 73 h): 200 nM
COc1cc(N2C(=O)CN(Cc3ccc(F)cc3Cl)C2=S)ccc1N(C)C — EC50 (parasite growth, resazurin; 48 h): 2 nM
CC1CCCCN1C(=O)NCCc1nc(-c2cccc(F)c2)cs1 (centres unmarked) — EC50 (parasite growth): < 50 nM
N[C@H](C(=O)O)[C@@H]1CC(Cl)=NO1 — EC50 (parasite growth, resazurin; 72 h): 450 nM
CC1CS(=O)(=O)CCN1/N=C/c1ccc([N+](=O)[O-])o1 (centres unmarked) — EC50 (parasite growth; 24 h): 6000 nM
N#CC1CCN(C(=O)Nc2ccc3sc(-c4ccc(F)c(F)c4)nc3c2)C1 (centres unmarked) — EC50 (parasite growth, resazurin; 48 h): 1500 to 8000 nM
COc1cccc(OC)c1C(=O)c1sc(Nc2ccccc2)nc1N — EC50 (cell proliferation, resazurin; bloodstream form; 73 h): 400 nM
N[C@H](C(=O)O)[C@H]1CC(Cl)=NN1Cc1ccccc1 (relative stereo) — EC50 (parasite growth, resazurin; 72 h): 56200 nM
O=C(Nc1ccc2oc(-c3ccccc3)nc2c1)N1CCCCC1 — EC50 (parasite growth, resazurin; 48 h): ≥ 2800 nM
CC(C)(C)C(=O)c1sc(NC2CCCCC2)nc1N — EC50 (cell proliferation, resazurin; bloodstream form; 73 h): 300 nM
COc1ccc2c(C[Se][C@@H]3O[C@H](CO)[C@@H](O)[C@H](O)[C@H]3O)cc(=O)oc2c1 — EC50 (parasite growth; 24 h): ~5000 nM
O=C(NCCc1nc(-c2cccc(F)c2)cs1)N1CCC(F)CC1 — EC50 (parasite growth): < 50 nM
NCCN1N=C(Cl)CC1C(N)C(=O)O (centres unmarked) — EC50 (parasite growth, resazurin; 72 h): 23700 nM
Cc1cccc(C)c1Nc1nc(N)c(C(=O)c2ccccc2)s1 — EC50 (cell proliferation, resazurin; bloodstream form; 73 h): 9000 nM
CCN1N=C(Cl)C[C@@H]1[C@H](N)C(=O)O (relative stereo) — EC50 (parasite growth, resazurin; 72 h): 89800 nM
Nc1nc(Nc2ccccc2)sc1C(=O)c1cccc(Br)c1 — EC50 (cell proliferation, resazurin; bloodstream form; 73 h): 200 nM
Cc1ccc(C(=O)Nc2ccc(S(=O)(=O)O)c3cc(S(=O)(=O)O)cc(S(=O)(=O)O)c23)cc1NC(=O)c1cccc(NC(=O)Nc2cccc(C(=O)Nc3cc(C(=O)Nc4ccc(S(=O)(=O)O)c5cc(S(=O)(=O)O)cc(S(=O)(=O)O)c45)ccc3C)c2)c1 — EC50 (parasite growth, resazurin; 48 h): 40 nM

A few entries again:
CC(C)(C)C(=O)c1sc(NC2CCCCC2)nc1N — EC50 (cell proliferation, resazurin; bloodstream form; 73 h): 300 nM
COc1ccc2c(C[Se][C@@H]3O[C@H](CO)[C@@H](O)[C@H](O)[C@H]3O)cc(=O)oc2c1 — EC50 (parasite growth; 24 h): ~5000 nM
